Results of several laboratories.
Numbered parts are unrelated; each lists some results of a single study. Substitutions count along the parent as printed.

Series 1
Target: RNA binding protein fox-1 homolog 2, RRM domain, GST-SBP tag (RBFOX2, Homo sapiens, UniProt O43251-10, residues 100-194)
Method: RNA Bind-n-Seq
Form: RNA
Medium: in vitro
Concentration: 365 nM
Setting: natural RNA segment, single round, ends assumed
Baseline: no-protein control
Reading: higher = stronger binding
All sequences stand within: GGGAGUUCUACAGUCCGACGAUC … UGGAAUUCUCGGGUGCCAA
Residues (chain): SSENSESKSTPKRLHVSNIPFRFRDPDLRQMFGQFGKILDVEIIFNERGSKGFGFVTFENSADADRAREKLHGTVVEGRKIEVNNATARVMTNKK
Sequence | RBNS enrichment (R)
UUUGUGCCCCCUUUAGGAAGGAAAAGAAUACACCUACGAUGUGCCAGGCACUGUGUUAGGCGCUUUUAUAUAGAUCCUCGUUAGGAUGAGACUAAGGGAUGAGGACAUCU | 0.229
GCUACACUAAGAAAGAAAUAGAGUUUGACAUAAGUUGAGAUUUUAGUGUGAUCUGGAUGUGUGAUAAUCCAUUUUUAGAAUAUUAAUUUCAUUACCCAUUAAUUAUGGCC | 1.48
UUUUUCCUGUUCACAAGCUGAGCCAUAUGUACAUAAUCUAGAUUUUGUUUUCAUAGUUUUGCACUUUUAUAGCCUAUUUUUGAAGAUUAACACAUUUGCAAGAUGAUUGA | 0.419
UGUCACGACUUAAGAUUAGAUGAUCUCUACUGACCUCUUCUCAUAGAUUUUGUAUAAAUGAAGUGCUGGACUUUACCUGAAAGCUGCAAAAAUUAAUGGUUUAGAUAUAU | 0.605
UAAAGAUCACCCGUUGUAUUCACCCCACACCCAGGGCUAGUAUAAACAUGACCCUGGGCUUCUGUACCACACUAGAAUUCAUGUGAGAAAGCUAAAAUGGUGGUCUUCUC | 0.205
GUAUUUUGAGAAAUGGCACAAAAACAGGCAGUCAUCUUUAAGGGCUAUGCCUAGGCAAACUACUAACAUGCAUUGUGAGAAUGCCGUGUAUACCUCACGUACUGUGUACU | 0.477
UUCCAAACUUAAGAAAAUAUUUACUUCUGAUACCCCUGCUGAGGAAAGCGGUCAACUGGAAACUAAAUGGAGCAGCAGCUCCUCUCUGUGGCCAGGGCAUCAGACACAGG | 0.496
CUACCAGAUUCUGCCUAUGUAAAAUGAAUUGAAAAACAAUUUUCUGUAAUCUUUUAUUUAAGUAGUGGGCAUUUCAUAGCUUCACAAUGUUCCUUUUUUGUAUAUUACAA | 0.575

Series 2
Target: ABI1, truncated, D143A, DHFR fusion (Arabidopsis thaliana)
Method: DHFR PCA, deep sequencing
Medium: yeast
Setting: methotrexate growth selection, single substitutions
With: (+)-ABA 17 µM
Baseline: wild-type fitted maximum
Reading: higher = stronger binding
Parent: PYL1, truncated, DHFR fusion (Arabidopsis thaliana); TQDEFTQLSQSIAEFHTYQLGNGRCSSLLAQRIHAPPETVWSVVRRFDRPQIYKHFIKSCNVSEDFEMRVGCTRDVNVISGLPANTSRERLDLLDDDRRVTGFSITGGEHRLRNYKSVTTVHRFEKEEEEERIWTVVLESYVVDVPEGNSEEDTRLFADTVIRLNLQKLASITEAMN; partner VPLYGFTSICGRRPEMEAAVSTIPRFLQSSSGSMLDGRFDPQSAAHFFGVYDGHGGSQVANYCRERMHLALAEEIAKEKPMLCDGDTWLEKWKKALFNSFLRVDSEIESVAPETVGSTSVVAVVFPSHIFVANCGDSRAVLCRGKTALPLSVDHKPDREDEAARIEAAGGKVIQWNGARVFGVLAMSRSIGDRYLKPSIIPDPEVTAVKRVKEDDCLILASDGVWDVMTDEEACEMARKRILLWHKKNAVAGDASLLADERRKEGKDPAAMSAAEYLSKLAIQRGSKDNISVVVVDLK
Variant | relative binding score [%]
P146E | 0.912
S150V | 38.4
D3S | 79
T135S | 90.7
L112T | 0.149
E89M | 5.46
T39Q | 77.1
Q51A | 31.7
S42M | 65
E14L | 58.6
E152D | 81.9
H110K | 1.02
H34R | 74.9
K54M | -11.6
R132C | 97
P36G | 47.6

Series 3
Target: CCNB2, cyclin fold, Cln2 fusion (human)
Method: yeast growth competition, sequencing
Medium: yeast
Setting: strong parent motif
Baseline: not given
Reading: higher = stronger binding
Parent: MICAL3 docking peptide (human); LQLRRQLSFSEDS
Variant | normalised enrichment score
LQLRRQLSFSKDS [E11K] | 1.38
LQLERQLSFSEDS [R4E] | 0.739
LQLRRQLSFSRDS [E11R] | 1.43
LQLRRILSFSEDS [Q6I] | 1.85
LQLRRQLSFTEDS [S10T] | 2.49
LQLRRTLSFSEDS [Q6T] | 3.04
LQLRRQPSFSEDS [L7P] | 0.0663
LQLLRQLSFSEDS [R4L] | -0.0257
LQLRRCLSFSEDS [Q6C] | 3.44
LQLGRQLSFSEDS [R4G] | -0.0279
LQLRRQLSPSEDS [F9P] | 0.304
LQLRRQLSFSELS [D12L] | 2.51
LQLRRDLSFSEDS [Q6D] | 0.146
LQLRRQLSFFEDS [S10F] | 1.09
LQLRRQLSYSEDS [F9Y] | 2.32
LNLRRQLSFSEDS [Q2N] | 3.41
LQLRRQLSFSVDS [E11V] | 1.55
LQLRRQLSFNEDS [S10N] | 2.88
LQLRRQLRFSEDS [S8R] | 1.32
LSLRRQLSFSEDS [Q2S] | 3.82
LQLRRQLEFSEDS [S8E] | 0.878
LQLRRQQSFSEDS [L7Q] | 0.043
LQLRRQLSWSEDS [F9W] | 1.63
LQLRHQLSFSEDS [R5H] | 0.0382
LQLRRQASFSEDS [L7A] | -0.198

Series 4
Target: Interferon regulatory factor 7, full length, phosphomimetic (IRF7, Homo sapiens, UniProt Q92985, residues 1-503, S101K/S471D/S472D/S475D/S476D/S477D/S483D/S484D/S487D)
UniProt Q92985, sequence (whole entry, unmodified, looked up): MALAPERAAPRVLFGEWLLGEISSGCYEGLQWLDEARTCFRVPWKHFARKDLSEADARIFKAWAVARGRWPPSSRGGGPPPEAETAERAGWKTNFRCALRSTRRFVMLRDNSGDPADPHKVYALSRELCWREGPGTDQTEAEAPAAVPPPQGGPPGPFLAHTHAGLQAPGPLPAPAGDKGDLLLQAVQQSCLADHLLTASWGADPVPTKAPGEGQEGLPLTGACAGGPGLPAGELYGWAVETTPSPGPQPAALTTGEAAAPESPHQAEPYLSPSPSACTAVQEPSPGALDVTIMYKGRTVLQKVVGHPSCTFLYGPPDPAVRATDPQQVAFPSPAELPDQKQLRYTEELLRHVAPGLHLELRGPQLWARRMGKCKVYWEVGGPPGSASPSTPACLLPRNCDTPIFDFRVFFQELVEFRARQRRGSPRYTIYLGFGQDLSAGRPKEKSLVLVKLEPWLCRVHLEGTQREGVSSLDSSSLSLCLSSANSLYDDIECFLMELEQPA
Method: protein-binding microarray
Form: double-stranded DNA, one strand shown
Medium: in vitro
Concentration: 250 nM
Setting: 60-bp whole probe
With: salmon DNA 0.4 mg/ml
Baseline: random background probes
Reading: higher = stronger binding
All sequences stand within: GCCTAGCAC … GTCTTGATTCGCTTGACGCTGCTG
Sequence | log fluorescence
CTCTTTTTGCTTTCTTTATGGTGCTAG | 2.18 z-score
TCACCTTGAGGTTTTCTCACTGTGCTA | -0.558 z-score
GACGGACGGGACACTGGGGACGTGCTA | -0.69 z-score
GACGGACTGGTACTGCTGACGTGCTAG | -0.608 z-score
GAGTGGTTCTGCTTCTTAGCGTGCTAG | 0.259 z-score
TTAGGACTGGGGTTACGGTTAGTGCTA | -0.266 z-score
GACGATATCAGTATGGAGACGTGCTAG | -0.365 z-score
GACGGACTGGGTCTAGGGACGTGCTAG | -0.577 z-score
GGGCACATCTTAACATATGAGTGCTAG | 0.063 z-score
TTACGTATCGGGTATCGGTTAGTGCTA | 0.986 z-score
ATAAATATGAGACTGGGGATGTGCTAG | 0.0571 z-score
TTAGGACTGGGTCTCGCTTAGTGCTAG | 0.418 z-score
GACCGTTTCCTTTCCCTGACGTGCTAG | 3.23 z-score
TTAGGACGGGGGACTGGGTTAGTGCTA | 2.14 z-score
TTAGGACTGCTTTTCCTTTAGTGCTAG | 1.31 z-score
GACGATTTCGGGGTTCGAGACGTGCTA | 0.302 z-score
TCATATATCCATTATAGACTGTGCTAG | 0.784 z-score

Repeated from above (series 4):
Sequence | log fluorescence
TTAGGACTGCTTTTCCTTTAGTGCTAG | 1.31 z-score
GAGTGGTTCTGCTTCTTAGCGTGCTAG | 0.259 z-score
TCACCTTGAGGTTTTCTCACTGTGCTA | -0.558 z-score
TCATATATCCATTATAGACTGTGCTAG | 0.784 z-score
